Earlier results that unrelated publications cite.
Lines come from different studies, so protocols differ. “And” joins repeats or separate records; there may be more than shown. ± gives the spread as reported.

The IC50 of `CNC(=O)Oc1cccc(CN(C)CCCCCOC(=O)/C=C/c2ccc(O)c(OC)c2)c1` is reported as 19.7 nM (AChE).
`CN(CCCCCNc1c2c(nc3ccccc13)CCCC2)C1CCC(c2ccc(Cl)c(Cl)c2)c2ccccc21` (stereo not drawn) gave an IC50 of 8 nM (acetylcholinesterase, Electrophorus electricus).
With `CCn1c(CC(=O)N2CCN(c3ccccc3)CC2)nc2sc3c(c2c1=O)CCCC3` the IC50 was 70 nM (AChE).
`COc1c(O)cccc1C(=O)C1CCN(CCc2ccc(F)cc2)CC1` gave an IC50 of 2.3 nM (5-HT2A receptor (human); calcium release, antagonist; CHO cells expressing human 5-HT2A).
The IC50 of `C#CCN(C)[C@H](C)c1ccc(/C=[N+](\[O-])C(C)(C)C)c(OC(=O)N(C)CC)c1` is reported as 1050 ± 160 nM (monoamine oxidase B; inhibitor; racemate).
For `CO[C@H]1CC=C2CCN3CCC4=C(CC(=O)CC4)[C@]23C1`, the IC50 was 370 nM (α4β2 nicotinic acetylcholine receptor; inhibitor).
For `CC(C)[C@@H]1NC(=O)[C@H](CCCCN)NC(=O)[C@@H](Cc2c[nH]c3ccccc23)NC(=O)[C@H](Cc2ccc(O)cc2)NC(=O)[C@@H](NC(=O)[C@H](N)Cc2ccc3ccccc3c2)CSSC[C@@H](C(=O)N[C@@H](Cc2ccc3ccccc3c2)C(N)=O)NC1=O`, the IC50 was > 10000 nM (mouse GRP receptor; binding; literature species comparison).
`CC(C)[C@@H]1NC(=O)[C@H](CCCCN)NC(=O)[C@@H](Cc2c[nH]c3ccccc23)NC(=O)[C@H](Cc2ccc(O)cc2)NC(=O)[C@@H](NC(=O)[C@H](N)Cc2ccc3ccccc3c2)CSSC[C@@H](C(=O)N[C@@H](Cc2ccc3ccccc3c2)C(N)=O)NC1=O` has an IC50 of 605 nM (bombesin receptor BB1; concentration not given).
`Cc1cc(-n2c(=O)ccc3cnc4[nH]ccc4c32)ccc1F` has an IC50 of 295 nM (STK16; enzyme activity).
`Nc1ncnc2c1ncn2C1OC(CSCCCCNCc2cccc(-c3ccc(Cl)cc3)c2)C(O)C1O` (stereo not drawn) gave an IC50 of < 2.5 nM (PRMT7; inhibitor).
Under “time of increasing uptake”, `O=C(OCC[18F])C1C2CCC(CC1c1ccc(/C=C\I)cc1)N2` (stereo not drawn) is recorded as 85 to 105 min (SERT; microPET; anaesthetised animal, SERT-rich brain regions).
The IC50 of `CC[C@H](C)[C@H](NC(=O)[C@@H](NC(=O)[C@@H](NC(=O)[C@H](CCCNC(=N)N)NC(=O)[C@@H](N)CCCCN)C(C)C)C(C)C)C(=O)N[C@@H](CC(N)=O)C(=O)N[C@@H](CCCCN)C(=O)N[C@@H](CC(=O)O)C(=O)N[C@H](C(=O)O)[C@@H](C)O` is reported as 1060 nM (Mamu-B*03 MHC class I; peptide binding, competitor, competitive binding).
The IC50 of `C[C@H]1CC[C@@H]2[C@@H](C)[C@H]3[C@H](C[C@H]4[C@@H]5CC=C6C[C@@H](O)CC[C@]6(C)[C@H]5CC[C@]34C)N2C1` is reported as 16.8 nM (butyrylcholinesterase; enzyme activity, inhibitor).
The IC50 of `CC(C)C[C@H](NC(=O)OCc1ccccc1)C(=O)N[C@H](C=O)C[C@@H]1CCNC1=O` is reported as 9 nM (cathepsin B; inhibitor).
The IC50 of `CC[C@H](C)[C@H](NC(=O)[C@H](Cc1c[nH]c2ccccc12)NC(=O)[C@H](CCCNC(=N)N)NC(=O)[C@@H](N)CCCNC(=N)N)C(=O)N[C@@H](CCC(N)=O)C(=O)N[C@@H](CC(C)C)C(=O)NCC(=O)N[C@@H](CC(C)C)C(=O)N[C@@H](CCC(N)=O)C(=O)N[C@@H](CCCCN)C(=O)O` is reported as 14 nM (Mamu-B*08 MHC class I; peptide binding, competitor, competitive binding).
`C(#Cc1cncc(OC[C@@H]2CCN2)c1)c1ccccc1` has an IC50 of 0.049 nM (nicotinic acetylcholine receptor α4β2).
For `O=C1C[C@@H]2COc3ccc(OCCN4CCCC4)cc3C2=NN1c1ccccc1`, the IC50 was 8300 nM (butyrylcholinesterase, horse; enzyme activity, inhibitor).
`O=C1[C@@H]2CCCN2[C@@H](c2ccc([N+](=O)[O-])cc2)N1c1ccc([N+](=O)[O-])cc1` has an IC50 of 1200 ± 400 nM (dengue virus 2 NS2B-NS3 protease; inhibitor).
With `O=C[C@H](C[C@@H]1CCNC1=O)NC(=O)[C@H](Cc1ccccc1)NC(=O)/C=C/c1ccc(Cl)cc1F` the IC50 was < 500 nM (enterovirus 71 3C protease; enzyme activity, inhibitor).
`CC(=O)SCC(=O)NCCCCCC(=O)Nc1ccccc1` has an IC50 of 22000 nM and 20100 nM (total HDAC; HeLa nuclear extract).
`CC(C)C[C@H](NC(=O)[C@H](C)NC(=O)[C@H](CCC(=O)O)NC(=O)[C@H](Cc1c[nH]c2ccccc12)NC(=O)CNC(=O)[C@H](CCCNC(=N)N)NC(=O)[C@H](CCCNC(=N)N)NC(=O)CN)C(=O)N[C@@H](CCCCN)C(=O)N[C@@H](Cc1ccc(O)cc1)C(=O)O` gave an IC50 of 6500 nM (Mamu-B*03 MHC class I; peptide binding, competitor, competitive binding).
With `COc1cc(/C=C/C(=O)N2CCC(Cc3ccccc3)CC2)ccc1OCCCCN(N1CCCc2ccccc21)N1CCCc2ccccc21` the IC50 was 8.9 nM (BChE).
`CC[C@H](C)[C@H](N)C(=O)N[C@@H](CCCNC(=N)N)C(=O)N[C@@H](CC(C)C)C(=O)N[C@@H](CCCNC(=N)N)C(=O)N1CCC[C@H]1C(=O)NCC(=O)NCC(=O)N[C@@H](CCCCN)C(=O)N[C@@H](CCCCN)C(=O)O` has an IC50 of 9360 nM (Mamu-B*03 MHC class I; peptide binding, competitor, competitive binding).
`CC1=NOC(=O)/C1=C\c1ccc(-c2ccccc2)o1` has an IC50 of 5500 nM (IspE (Escherichia coli)).

Repeated from above:
`CC[C@H](C)[C@H](N)C(=O)N[C@@H](CCCNC(=N)N)C(=O)N[C@@H](CC(C)C)C(=O)N[C@@H](CCCNC(=N)N)C(=O)N1CCC[C@H]1C(=O)NCC(=O)NCC(=O)N[C@@H](CCCCN)C(=O)N[C@@H](CCCCN)C(=O)O` has an IC50 of 9360 nM (Mamu-B*03 MHC class I; peptide binding, competitor, competitive binding).
`Nc1ncnc2c1ncn2C1OC(CSCCCCNCc2cccc(-c3ccc(Cl)cc3)c2)C(O)C1O` (stereo not drawn) gave an IC50 of < 2.5 nM (PRMT7; inhibitor).
`CN(CCCCCNc1c2c(nc3ccccc13)CCCC2)C1CCC(c2ccc(Cl)c(Cl)c2)c2ccccc21` (stereo not drawn) gave an IC50 of 8 nM (acetylcholinesterase, Electrophorus electricus).
`C(#Cc1cncc(OC[C@@H]2CCN2)c1)c1ccccc1` has an IC50 of 0.049 nM (nicotinic acetylcholine receptor α4β2).
